Assay results gathered from unrelated publications.
Parts stem from different laboratories: compare values within a part only.

Study 1
Target: PABPC1L2, full length, GST fusion (mouse, UniProt A0ABA7IW68)
Method: RNAcompete
Form: RNA
Medium: in vitro
Concentration: 20 nM
Setting: 7-mer, probes averaged, single round
Baseline: mean of 7-mers
Reading: higher = stronger binding
Endpoint: 7-mer Z-score
Construct (chain): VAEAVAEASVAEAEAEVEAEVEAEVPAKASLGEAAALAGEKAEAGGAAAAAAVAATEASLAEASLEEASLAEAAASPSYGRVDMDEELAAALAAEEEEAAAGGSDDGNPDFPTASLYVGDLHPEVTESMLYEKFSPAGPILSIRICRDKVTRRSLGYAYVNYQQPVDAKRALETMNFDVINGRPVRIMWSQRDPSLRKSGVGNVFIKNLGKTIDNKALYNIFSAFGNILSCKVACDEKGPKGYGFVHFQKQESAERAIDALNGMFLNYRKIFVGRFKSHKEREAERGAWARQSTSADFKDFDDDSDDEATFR
AGUGAUC: -0.278
CGCCCUC: -0.421
CAUAAUG: -0.179
CGCAGGG: 0.095
CCUGGAG: -0.0554
AGACUCA: -0.208
ACACGCU: -0.0971
CUAUCCA: -0.371
UGCAGAG: -0.0573
CUUCAGU: -0.296
GUCUAAU: -0.293
UGGCCGG: -0.151
CAUGCAA: 0.017
ACAUUGC: 0.00617
UUGAAAG: -0.0699
CAAUACG: -0.148
CAAGUAA: 0.0315
AACCCUA: -0.0337
CGCUUCU: -0.365
UGGGUAA: 0.234
CGCGACG: -0.146
GUAGAAC: -0.0989
GGUUGGC: -0.0319
AGUUUAC: -0.295

Study 2
Target: RNA binding protein fox-1 homolog 2, RRM domain, GST-SBP tag (RBFOX2, Homo sapiens, UniProt O43251-10, residues 100-194)
Method: RNA Bind-n-Seq
Form: RNA
Medium: in vitro
Concentration: 365 nM
Setting: natural RNA segment, single round, ends assumed
Baseline: no-protein control
Reading: higher = stronger binding
Endpoint: RBNS enrichment (R)
Construct (chain): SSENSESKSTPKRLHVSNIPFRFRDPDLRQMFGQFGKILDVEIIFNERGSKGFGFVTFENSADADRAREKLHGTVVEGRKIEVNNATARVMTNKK
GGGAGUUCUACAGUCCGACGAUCUGAUUUCUUUUUUUUUCCUGUUGGACUAUGUUUGUGAACAUAAUUGUCAUAAGUUAUGUUUCAGAUUUUUGAAUUUAUUUAUAUGUGUUAUAAUGAAUGCUUCUAUUUAAUGGAAUUCUCGGGUGCCAA: 0.725
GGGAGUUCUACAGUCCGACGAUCUAGCUCUGUGCUCUCACCAGACAAUGAAUGAACUAUGAAAGAUUUAGUCAACAGAAACUAUUUUAGGGUAUGUUUAGUUGGUAAAUGCUUCAUGUUCAUGGAUGACACAAUGGAAUUCUCGGGUGCCAA: 0.377
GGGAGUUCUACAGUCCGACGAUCGUGUGUGUGUGUGUGUGUGUGUGCGUGCAUGUGUGUAUUAAGAGGGAUGACAUCCUGUUUAUUUUCCCAUUUGGAUGCCACAUGGUAUCCAAAGCUGGUAGAGCAGCUAUUGGAAUUCUCGGGUGCCAA: 1.69
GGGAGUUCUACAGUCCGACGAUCGUGCAGGACUGCCUGGCCGUGGGGCAGAGGGGUUUGCCCUUCUCGGAGGGUACCUCCUGUUCCCUGUCUGAGCAUCCUGCAUGGAAGUCAAAGGAAAUCCCUUUCUUGGUUGGAAUUCUCGGGUGCCAA: 0.232
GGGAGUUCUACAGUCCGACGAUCAGCAAGAGACUGAAUGUUUCCUGAAGUAUUACCAUGACCCAAGGCAGAGAGAAACCAUGGGAACUCCCUGUGGGGAACACUCAAGAAGGCCAAGCCUCAGCAGGAAAGUGUGGAAUUCUCGGGUGCCAA: 0.426
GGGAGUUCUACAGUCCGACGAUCGUGGCCAAGCGAGGUCUCAGGUGCAAAGCAAAAGGACCAUUUAAAGUAAAAUAGCUUGGAUUCAAUCAUGUGACUUUUAAAUUGGCUCAGAAAGCAAUUUUGUAAUUUCAUGGAAUUCUCGGGUGCCAA: 0.789
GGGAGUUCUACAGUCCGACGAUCCCCCAACUUGGCUCGGCAUGUGAAUUCUUAGCUCUGCAAGGUGUUUAUGCCUUUGCGGGUUUCUUGAUGUGUUCGCAGUGUCACCCCAGAGUCAGAACUGUACACAUCCCUGGAAUUCUCGGGUGCCAA: 0.532
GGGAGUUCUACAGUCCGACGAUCGUGACUUGAUGCUCUAAAUCAUUGUAGGAUUUACCGCUAGAUGGUUUUGAACCCUUGAACCUGUGAUUGUGACCCAUGAGGGGGGACCUUUCAGUGCUAAAGCUGAUCAUUGGAAUUCUCGGGUGCCAA: 0.54
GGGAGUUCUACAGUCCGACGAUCUGUUGCAUUAUUUUGAAUAUUGUCUUUUCAUUUUAAUAAAGUUAUAAUACUUAUUUAUGAUACCAUUGUAAUGUUUCUUGCCUAAAGUCUUAUAAAGUGUAUGAAGCAAUUGGAAUUCUCGGGUGCCAA: 1.52
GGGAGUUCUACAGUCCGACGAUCUCAUGCCAAAGUUCUGAUGACGUAACCAGUUGACCCUUCACACAGAGUGCCCUUUCCCCCCCUCCCCCCUCCCCAUGCUUCUGUGAUUGCUCUGUAGCCAUGUGAAGCUUUGGAAUUCUCGGGUGCCAA: 1.01
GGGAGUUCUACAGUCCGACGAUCCAAGGCAUGAUGUGGCAGUAGCUGCUUCCCCUACCACUAGCUGCCCCCUCAUGGUCGUCUGGGGGACAGAGGUGGUCUGUGUUUACAAGGGCAGUCAAGUCCAGUCACCCUGGAAUUCUCGGGUGCCAA: 8.25
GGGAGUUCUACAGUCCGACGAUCUCUGGGUCUAAAGCUCAGCACUGAGUCACAAUUUCACACAAGAUCAAAGUGAGGCAGUGUUAGGAAACCAUGGGCUGGGUGCAGUGCCUCUCGCCUGUAAUCGUAGCACUUGGAAUUCUCGGGUGCCAA: 0.275

Study 3
Target: RING finger protein unkempt homolog, zinc fingers 1-6, GST-SBP tag (UNK, Homo sapiens, UniProt Q9C0B0, residues 30-357)
Method: RNA Bind-n-Seq
Form: RNA
Medium: in vitro
Concentration: not given
Setting: RNA with constant flanks, ends assumed
Baseline: input RNA pool
Reading: higher = stronger binding
Endpoint: bound/input enrichment
Target sequence (chain): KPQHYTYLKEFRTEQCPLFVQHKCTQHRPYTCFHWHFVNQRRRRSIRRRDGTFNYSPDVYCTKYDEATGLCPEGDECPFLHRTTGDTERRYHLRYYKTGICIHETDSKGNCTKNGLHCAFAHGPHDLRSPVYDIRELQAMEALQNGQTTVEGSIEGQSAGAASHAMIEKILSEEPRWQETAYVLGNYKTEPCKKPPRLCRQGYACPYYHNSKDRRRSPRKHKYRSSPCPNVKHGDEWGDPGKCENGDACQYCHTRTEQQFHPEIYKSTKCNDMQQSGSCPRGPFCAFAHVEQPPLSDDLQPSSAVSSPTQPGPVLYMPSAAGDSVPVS
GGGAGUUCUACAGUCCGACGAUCCCUUUAUAUCCUCAGCCCAAGAGACGGUGUUCCCCUGCGACCUCCAAGCCUGGAAUUGUGCACCGCCUGGGUCUUGUAUCUUUGUAUAACGGAUGUUAUUUGUACGAAGGGCAGUUCGUACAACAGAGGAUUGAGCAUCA: 0.304 ratio
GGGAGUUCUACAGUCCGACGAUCUGCUUUUCUUUCUAAGCAGAGUAUGGUUGUCAUCUUUCUGGACAGAUGAAUUGAUAGGAGACCGAAGGUCGAAAGAUGGCUGUUAUACCAGCCUAAGUUCAGAACACCAGCAUAUCAAGGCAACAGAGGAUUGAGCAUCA: 0.161 ratio
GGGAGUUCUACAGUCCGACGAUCGAGAGCUGCCUGGUGUCAGGUAGAGAGGACACUGUACCUGGGUGAAUGAUCAGACCCUGGCCGCUAAGAAGGAACUUGUCCCUUUGAGUCAGUGUGCAGACCCCCUUUCAGGCCAUGCCUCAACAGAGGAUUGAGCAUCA: 0.115 ratio
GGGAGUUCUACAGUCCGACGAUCGAAAAAUUAUCUAGGCCUGAUCUCAAACGGCAGAAUCUACUGUAAUCAAAUCAAUGACUUUUUCCGACACAUUUUAUAAAAAUGCAGCACAUGUAGUGUUGCCCCCCACCCAAUCUGUAUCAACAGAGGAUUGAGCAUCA: 0.629 ratio
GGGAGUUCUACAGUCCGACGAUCUAACCACAUCAAGAUGGUUGGAAAGCUGAAGCAGAACUUACUAUUGGCAUGUCUGGUGAUCCGUUCUGUGACUGUGUUUUACCUGGGCCAGCAUGCCAUGGAAUGCCAUCACCGGAUAGACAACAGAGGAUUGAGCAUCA: 0.092 ratio
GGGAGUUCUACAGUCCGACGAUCAUGAAAAGACUAAUUGGAUGAAUACUAUCUUUCUAAUGAAUUUGUGAUUAAAUAUAUAACCGUUGUUGAAAAUGAGUAACUUUGCGUUCUCCCCCUAGGUUGUUCUUAGAUGCCUGGCUUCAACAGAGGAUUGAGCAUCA: 4.79 ratio
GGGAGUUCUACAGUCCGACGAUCGAGGUGGUGCCUAUUCAUCAGCAGGACAUUCCUGUUGAUAAUCCCAUCGAGAGCAAUAAUAUCUUCCCCGUGGCCCCAUUGAUCAUCUGCCACGUGAUUGACAAGCGUAGCCCCCUGUAUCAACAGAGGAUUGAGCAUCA: 0.15 ratio
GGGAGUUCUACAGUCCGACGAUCAUAUGACUAGCAAGCUAGCUGUUUUUAAUCUCUUCUGCAAGUUUGGUGAUCCGUGUGGUUCCGCCGAGAUAUUAAAAUUAUUAAAAAUACUAUGUUGAUUUCAGAAGAGACUAGCUUUGUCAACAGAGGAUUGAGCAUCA: 1.45 ratio
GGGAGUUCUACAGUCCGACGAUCCAUGGCGGCCGCCCCGGAGCCCCACGAGACGGAGAAAAAGCCCUUCAAGCUCCUAGGUAUUUCCGAUGUUGAGAACACUCCAUGUGCUCGAGAAUCUAUACUCUAUGGCUCAUUAGGAUCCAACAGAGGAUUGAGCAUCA: 0.29 ratio
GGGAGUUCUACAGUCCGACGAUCCAAGGCGGUUUCAGAGAAGUUCGGAAUGAGUAUGGGUCAAGAAUAGGAGGAAAUGAAGGGACCGAUGUCCCCAUUCCAAGAUUUGCUGUUGGCAUUGUAAUAGGAAGAAAUGGAGAGAUGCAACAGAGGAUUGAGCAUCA: 2.76 ratio
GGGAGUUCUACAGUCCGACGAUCUUGCUGAUGACUUCUUGUGGCAUUUCACACUGUAGAUGGUCACUGCCUCUCAUGUCCAUGUCCGCUAAUGGUGUAAGAUGAUGUCUUGUCAGUAUUACUGUUUUGCUAAGCUGCUUCAUUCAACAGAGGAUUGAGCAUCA: 0.119 ratio

Study 4
Target: Histone acetyltransferase KAT6A, winged helix 2, GST fusion (KAT6A, Homo sapiens, UniProt Q92794, residues 85-181)
Method: protein binding microarray
Form: double-stranded DNA, one strand shown
Medium: in vitro
Concentration: not given
Setting: 8-mer, flanks averaged, mean of 2 arrays, mostly near background
Baseline: not given
Reading: higher = stronger binding
Endpoint: E-score
Target sequence (chain): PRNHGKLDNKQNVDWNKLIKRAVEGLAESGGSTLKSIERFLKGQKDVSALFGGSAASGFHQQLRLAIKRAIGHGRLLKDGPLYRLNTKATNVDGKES
AGCTTAGG: -0.0835
GATTGGCC: -0.0265
TGACCGAA: -0.00285
CGCGGGAG: 0.204
AAGGTAGG: -0.0378
ACCACCGG: 0.0138
ACGTCATC: -0.267
CGTGTCGC: 0.176
CTAGCACA: -0.155
CTGAACTA: -0.0719
AGCGACCT: -0.0801
GTCACGAC: 0.123
AAAAAGAC: 0.0384
ACCACACC: -0.0546
CCTCGGGA: 0.0756
CTTTAAAG: -0.16
CTCCGGGC: 0.0432
CTAGCGTA: -0.217
GAATCCGC: 0.122
ATTTTATA: 0.195
GCACATCC: 0.0469
AAGAGGGT: -0.0708
AAAATCCG: 0.117

Repeated from above (study 2):
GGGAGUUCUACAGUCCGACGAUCAGCAAGAGACUGAAUGUUUCCUGAAGUAUUACCAUGACCCAAGGCAGAGAGAAACCAUGGGAACUCCCUGUGGGGAACACUCAAGAAGGCCAAGCCUCAGCAGGAAAGUGUGGAAUUCUCGGGUGCCAA: 0.426
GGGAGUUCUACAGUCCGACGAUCGUGGCCAAGCGAGGUCUCAGGUGCAAAGCAAAAGGACCAUUUAAAGUAAAAUAGCUUGGAUUCAAUCAUGUGACUUUUAAAUUGGCUCAGAAAGCAAUUUUGUAAUUUCAUGGAAUUCUCGGGUGCCAA: 0.789
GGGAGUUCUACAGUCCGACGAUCCCCCAACUUGGCUCGGCAUGUGAAUUCUUAGCUCUGCAAGGUGUUUAUGCCUUUGCGGGUUUCUUGAUGUGUUCGCAGUGUCACCCCAGAGUCAGAACUGUACACAUCCCUGGAAUUCUCGGGUGCCAA: 0.532
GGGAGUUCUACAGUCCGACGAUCGUGACUUGAUGCUCUAAAUCAUUGUAGGAUUUACCGCUAGAUGGUUUUGAACCCUUGAACCUGUGAUUGUGACCCAUGAGGGGGGACCUUUCAGUGCUAAAGCUGAUCAUUGGAAUUCUCGGGUGCCAA: 0.54
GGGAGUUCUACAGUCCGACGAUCUGUUGCAUUAUUUUGAAUAUUGUCUUUUCAUUUUAAUAAAGUUAUAAUACUUAUUUAUGAUACCAUUGUAAUGUUUCUUGCCUAAAGUCUUAUAAAGUGUAUGAAGCAAUUGGAAUUCUCGGGUGCCAA: 1.52
